Assay results gathered from unrelated publications.
Lines come from different studies, so protocols differ.
Organism: Acinetobacter baumannii

| SMILES | test | test system | setting | MIC |
| --- | --- | --- | --- | --- |
| CCCCCC[N+](C)(C)CCCCCCOc1cc(OCCCCCC[N+](C)(C)CCCCCC)cc(OCCCCCC[N+](C)(C)CCCCCC)c1.[Br-].[Br-].[Br-] |  | ATCC 17978 |  | 125 µM |
| CN[C@H](CC(C)C)C(=O)N[C@H]1C(=O)N[C@@H](CC(N)=O)C(=O)N[C@H]2C(=O)N[C@H]3C(=O)N[C@H](C(=O)N[C@H](C(=O)O)c4cc(O)cc(O)c4-c4cc3ccc4O)[C@H](O)c3ccc(c(Cl)c3)Oc3cc2cc(c3O[C@@H]2O[C@H](CO)[C@@H](O)[C@H](O)[C@H]2O[C@H]2C[C@](C)(NCc3ccc(OCc4cn(CCCCC(=O)N[C@H](C(=O)N[C@@H](CCN)C(=O)N[C@H]5CCNC(=O)[C@H]([C@@H](C)O)NC(=O)[C@H](CCN)NC(=O)[C@H](CCN)NC(=O)[C@H](CC(C)C)NC(=O)[C@@H](CC(C)C)NC(=O)[C@H](CCN)NC5=O)[C@@H](C)O)nn4)c(OC)c3)[C@H](O)[C@H](C)O2)Oc2ccc(cc2Cl)[C@H]1O | broth microdilution | ATCC 17978, cation-adjusted Mueller-Hinton broth | 18 to 20 h, 37 °C, 0.002% polysorbate 80 | 32 µg/mL |
| CCCCCCCC(=O)N[C@@H](CCN)C(=O)N[C@H](C(=O)N[C@@H](C)C(=O)N[C@H]1CCNC(=O)[C@H]([C@@H](C)O)NC(=O)[C@H](CCN)NC(=O)[C@H](CCN)NC(=O)[C@H](CC(C)C)NC(=O)[C@@H](Cc2ccccc2)NC(=O)[C@H](CCN)NC1=O)[C@@H](C)O | CLSI broth microdilution | 246-01-C.246, CAMHB | 20 h, 37 °C | 4 µg/mL |
| CCCCCCCC(=O)N[C@@H](CCCN)C(=O)N[C@H](C(=O)N[C@@H](CCN)C(=O)N[C@H]1CCNC(=O)[C@H]([C@@H](C)O)NC(=O)[C@H](CCN)NC(=O)[C@H](CCN)NC(=O)[C@H]([C@@H](C)O)NC(=O)[C@@H](CC(C)C)NC(=O)[C@H](CCN)NC1=O)[C@@H](C)O |  | ATCC 19606, CAMHB | 20 h, 37 °C | > 32 µg/mL |
| CCCCCCCCCCCC[N+](C)(C)CCCCCCOc1cc(OCCCCCC[N+](C)(C)CCCCCCCCCCCC)cc(OCCCCCC[N+](C)(C)CCCCCCCCCCCC)c1.[Br-].[Br-].[Br-] |  | ATCC 17978 |  | 16 µM |
| COc1ccc2ccc(O)c(/C=N/[C@H]3CCCC[C@H]3/N=C/c3cc(C(C)(C)C)cc(C(C)(C)C)c3O)c2c1 | bacterial growth, broth microdilution | carbapenem-resistant clinical isolate |  | > 40 µM |
| C#CCNC(=O)C(C)(C)O/N=C(\C(=O)N[C@@H]1C(=O)N(S(=O)(=O)O)[C@H]1C)c1csc(N)n1 | agar dilution | ATCC 19606 |  | 64 µg/mL |
| CC[C@H]1OC(=O)[C@H](C)[C@@H](OC(=O)Cc2c(F)cc([N+](=O)[O-])cc2F)[C@H](C)[C@@H](O[C@@H]2O[C@H](C)C[C@H](N(C)C)[C@H]2O)[C@](C)(OC)C[C@@H](C)C(=O)[C@H](C)[C@@H](O)[C@]1(C)O |  | DSM 30007 |  | 8 µM |
| CCCCCC[N+](C)(C)CCCCOc1cc(OCCCC[N+](C)(C)CCCCCC)cc(OCCCC[N+](C)(C)CCCCCC)c1.[Br-].[Br-].[Br-] |  | ATCC 17978 |  | > 250 µM |
| CC(C)C[C@@H]1NC(=O)[C@@H](CC(C)C)NC(=O)[C@H](CCN)NC(=O)[C@@H](NC(=O)[C@H](CCN)NC(=O)[C@@H](N)[C@@H](C)O)CCNC(=O)[C@H]([C@@H](C)O)NC(=O)[C@H](CCN)NC(=O)[C@H](CCN)NC1=O | broth microdilution | ATCC 17978, cation-adjusted Mueller-Hinton broth | 18 to 20 h, 37 °C, 0.002% polysorbate 80 | > 128 µg/mL |
| COc1ccc2ccc(O)c(/C=N/[C@H]3CCCC[C@H]3/N=C/c3cc(C)ccc3O)c2c1 | bacterial growth, broth microdilution | carbapenem-resistant clinical isolate |  | > 40 µM |
| CCCCCCCC(=O)N[C@@H](CCN)C(=O)N[C@H](C(=O)N[C@@H](CCN)C(=O)N[C@H]1CCNC(=O)[C@H]([C@@H](C)O)NC(=O)[C@H](CCN)NC(=O)[C@H](C)NC(=O)[C@H](CC(C)C)NC(=O)[C@@H](Cc2ccccc2)NC(=O)[C@H](CCN)NC1=O)[C@@H](C)O | CLSI broth microdilution | 246-01-C.246, CAMHB | 20 h, 37 °C | 16 µg/mL |
| CC1(C)[C@H](NC(=O)/C(=N\OCc2c(Cl)cccc2Cl)c2nsc(N)n2)C(=O)N1OS(=O)(=O)O | agar dilution | ATCC 19606 |  | 64 µg/mL |
| CCOc1c(NC(=O)c2ccc(NC(=O)c3ccc(NC(=O)[C@H](Cc4c[nH]nn4)NC(=O)c4ccc(NC(=O)/C(C)=C/c5ccc(O)cc5)cc4)cc3)c(OCC)c2O)ccc(C(=O)O)c1O | broth microdilution | ciprofloxacin-resistant |  | 0.031 µg/mL |
| CN[C@H](CC(C)C)C(=O)N[C@H]1C(=O)N[C@@H](CC(N)=O)C(=O)N[C@H]2C(=O)N[C@H]3C(=O)N[C@H](C(=O)N[C@H](C(=O)NCc4cn(CCCCC(=O)N[C@H](C(=O)N[C@@H](CCN)C(=O)N[C@H]5CCNC(=O)[C@H]([C@@H](C)O)NC(=O)[C@H](CCN)NC(=O)[C@H](CCN)NC(=O)[C@H](CC(C)C)NC(=O)[C@@H](CC(C)C)NC(=O)[C@H](CCN)NC5=O)[C@@H](C)O)nn4)c4cc(O)cc(O)c4-c4cc3ccc4O)[C@H](O)c3ccc(c(Cl)c3)Oc3cc2cc(c3O[C@@H]2O[C@H](CO)[C@@H](O)[C@H](O)[C@H]2O[C@H]2C[C@](C)(N)[C@H](O)[C@H](C)O2)Oc2ccc(cc2Cl)[C@H]1O | broth microdilution | ATCC 17978, cation-adjusted Mueller-Hinton broth | 18 to 20 h, 37 °C, 0.002% polysorbate 80 | 64 µg/mL |
| Cc1c(CN(C)C(=O)/C=C/c2cnc3c(c2)CC(N)C(=O)N3)oc2ccccc12 (stereo not shown) | broth microdilution | KB304 |  | 64 µg/mL |

| SMILES | test | test system | setting | MIC |
| --- | --- | --- | --- | --- |
| CC1(C)[C@H](NC(=O)/C(=N\OCCN)c2nsc(N)n2)C(=O)N1OS(=O)(=O)O | agar dilution | ATCC 19606 |  | > 64 µg/mL |
| CCCCCCCC(=O)N[C@@H](CCN)C(=O)N[C@H](C(=O)N[C@@H](CN)C(=O)N[C@H]1CCNC(=O)[C@H]([C@@H](C)O)NC(=O)[C@H](CN)NC(=O)[C@H](CCN)NC(=O)[C@H]([C@@H](C)O)NC(=O)[C@@H](CC(C)C)NC(=O)[C@H](CCN)NC1=O)[C@@H](C)O |  | ATCC 19606, CAMHB | 20 h, 37 °C | 0.5 µg/mL |
| CCCCCCCC(=O)N[C@@H](CCN)C(=O)N[C@H](C(=O)N[C@@H](CCN)C(=O)N[C@H]1CCNC(=O)[C@H]([C@@H](C)O)NC(=O)[C@H](CCN)NC(=O)[C@H](CCN)NC(=O)[C@H](CC(C)C)NC(=O)[C@@H](Cc2ccccc2)NC(=O)[C@H](C)NC1=O)[C@@H](C)O | broth microdilution | ATCC 19606 | 20 h, 37 °C | > 512 µg/mL |
| CCCCCCCC[C@@H]1NC(=O)[C@@H](Cc2ccccc2)NC(=O)[C@H](CCN)NC(=O)[C@@H](NC(=O)[C@H](CCN)NC(=O)[C@@H](NC(=O)[C@H](CCN)NC(=O)CCCCCCC)[C@@H](C)O)CCNC(=O)[C@H]([C@@H](C)O)NC(=O)[C@H](CCN)NC(=O)[C@H](CCN)NC1=O | broth microdilution | ATCC 19606, colistin-susceptible |  | 0.25 to 0.5 µg/mL |
| CC[C@H]1OC(=O)[C@H](C)[C@@H](OC(=O)Cc2cccc([N+](=O)[O-])c2)[C@H](C)[C@@H](O[C@@H]2O[C@H](C)C[C@H](N(C)C)[C@H]2O)[C@](C)(OC)C[C@@H](C)C(=O)[C@H](C)[C@@H](O)[C@]1(C)O | microbial growth | ATCC19606 |  | > 32 µg/mL |
| CC1(C)[C@H](NC(=O)/C(=N\OCC(=O)N2CCC[C@@H]2C(=O)O)c2nsc(N)n2)C(=O)N1OS(=O)(=O)O | agar dilution | ATCC 19606 |  | > 64 µg/mL |
| CCCCCCCC(=O)N[C@@H](CN)C(=O)N[C@H](C(=O)N[C@@H](CCN)C(=O)N[C@H]1CCNC(=O)[C@H]([C@@H](C)O)NC(=O)[C@H](CCN)NC(=O)[C@H](CCN)NC(=O)[C@H]([C@@H](C)O)NC(=O)[C@@H](CC(C)C)NC(=O)[C@H](CCN)NC1=O)[C@@H](C)O |  | ATCC 19606, CAMHB | 20 h, 37 °C | 4 µg/mL |
| COc1cc(C(=O)O)ccc1NC(=O)c1ccc(NC(=O)c2ccc(NC(=O)[C@H](Cc3c[nH]nn3)NC(=O)c3ccc(NC(=O)/C(C)=C/c4ccc(O)cc4)cc3)cc2)cc1 | broth microdilution | ciprofloxacin-resistant |  | 4 µg/mL |
| CC[C@H]1OC(=O)[C@H](C)[C@@H](OC(=O)Cc2ccc3c(c2)OCO3)[C@H](C)[C@@H](O[C@@H]2O[C@H](C)C[C@H](N(C)C)[C@H]2O)[C@](C)(OC)C[C@@H](C)C(=O)[C@H](C)[C@@H](O)[C@]1(C)O |  | DSM 30007 | added: colistin sulfate at 0.1 x MIC | 0.25 µM |
| CC1(C)[C@H](NC(=O)/C(=N\OCCN)c2csc(N)n2)C(=O)N1OS(=O)(=O)O | agar dilution | 16-16 |  | > 64 µg/mL |
| CC[C@H]1OC(=O)[C@H](C)[C@@H](OC(=O)Cc2cccc3ccccc23)[C@H](C)[C@@H](O[C@@H]2O[C@H](C)C[C@H](N(C)C)[C@H]2O)[C@](C)(OC)C[C@@H](C)C(=O)[C@H](C)[C@@H](O)[C@]1(C)O | microbial growth | ATCC19606 |  | > 32 µg/mL |
| CCCCCCCC(=O)N[C@@H](C)C(=O)N[C@H](C(=O)N[C@@H](CCN)C(=O)N[C@H]1CCNC(=O)[C@H]([C@@H](C)O)NC(=O)[C@H](CCN)NC(=O)[C@H](CCN)NC(=O)[C@H](CC(C)C)NC(=O)[C@@H](Cc2ccccc2)NC(=O)[C@H](CCN)NC1=O)[C@@H](C)O | CLSI broth microdilution | 246-01-C.246, CAMHB | 20 h, 37 °C | 128 µg/mL |
| Oc1c(Br)cc(Br)c2nc3c(C(F)(F)F)cc(C(F)(F)F)cc3nc12 |  | 19606 |  | 12.5 µM |
| CC(=O)NC[C@H]1CN(c2ccc(N3CCN(C(=O)CN)CC3)c(F)c2)C(=O)O1 | broth dilution | ATCC 19606 |  | inactive |
| CCCCCCCCCCCC[N+](C)(C)CCCCOc1cc(OCCCC[N+](C)(C)CCCCCCCCCCCC)cc(OCCCC[N+](C)(C)CCCCCCCCCCCC)c1.[Br-].[Br-].[Br-] |  | ATCC 17978 |  | 4 µM |
